{"data": "Earlier results that unrelated publications cite", "note": "Protocols differ between the studies behind these lines. ± marks the error that the study gave.", "sequence of UniProt Q8IWQ3 (whole entry, looked up)": "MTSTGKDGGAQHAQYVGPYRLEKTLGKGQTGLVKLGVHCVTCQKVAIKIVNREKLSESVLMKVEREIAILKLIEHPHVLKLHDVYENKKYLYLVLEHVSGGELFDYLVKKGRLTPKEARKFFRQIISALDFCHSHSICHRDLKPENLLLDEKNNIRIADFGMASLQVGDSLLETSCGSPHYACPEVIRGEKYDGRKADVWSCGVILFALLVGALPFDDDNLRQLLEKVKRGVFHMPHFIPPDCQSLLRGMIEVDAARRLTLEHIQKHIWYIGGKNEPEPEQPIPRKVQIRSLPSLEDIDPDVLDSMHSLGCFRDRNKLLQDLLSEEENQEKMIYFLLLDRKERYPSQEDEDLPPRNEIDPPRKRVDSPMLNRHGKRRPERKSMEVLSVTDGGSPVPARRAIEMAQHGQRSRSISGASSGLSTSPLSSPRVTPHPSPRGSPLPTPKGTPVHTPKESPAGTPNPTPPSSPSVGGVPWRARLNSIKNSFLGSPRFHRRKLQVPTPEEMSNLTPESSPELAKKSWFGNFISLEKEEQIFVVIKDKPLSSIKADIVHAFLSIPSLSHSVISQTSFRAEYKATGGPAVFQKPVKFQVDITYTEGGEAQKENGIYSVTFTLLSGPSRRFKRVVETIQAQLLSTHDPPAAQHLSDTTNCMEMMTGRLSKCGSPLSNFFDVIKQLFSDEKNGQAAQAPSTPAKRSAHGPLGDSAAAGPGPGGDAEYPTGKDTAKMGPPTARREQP"}
{"Compound": "CS(=O)(=O)NCCCNCc1ccc(-c2cccc(-c3nc4cc(C(F)(F)F)ccc4[nH]3)c2)cc1", "tested on": "Plasmodium falciparum", "assay": "whole cell extended time", "system": "3D7", "conditions": "72 h", "endpoint": "IC50", "result": "850 nM"}
{"Compound": "Nc1cc(C(F)(F)F)c(-c2nc(N3CCOCC3)nc(N3CCOCC3)n2)cn1", "tested on": "Serine/threonine-protein kinase BRSK2 (BRSK2, Homo sapiens, UniProt Q8IWQ3)", "assay": "enzyme activity", "conditions": "10 µM", "how to read": "baseline: untreated", "endpoint": "remaining activity", "result": "61%"}
{"Compound": "CCc1nc(N)nc(N)c1-c1ccc(Cl)cc1", "tested on": "Plasmodium falciparum", "system": "3D7 0087/N9, NSG mouse", "conditions": "dose not given", "endpoint": "AUC at ED90", "result": "5.2 µM·h"}
{"Compound": "O=C(/C=C/c1cccc(S(=O)(=O)Nc2ccccc2)c1)NO", "tested on": "Plasmodium falciparum", "assay": "parasite growth", "system": "Dd2 (chloroquine-resistant)", "endpoint": "IC50", "result": "130 ± 10 nM"}
{"Compound": "N#Cc1cc(NC(=O)[C@H]2c3ccccc3C(=O)N(CC(F)(F)F)[C@@H]2c2cccnc2)ccc1F", "tested on": "Plasmodium falciparum", "assay": "eryptosis induction", "system": "trophozoite/schizont-infected erythrocytes", "endpoint": "EC50", "result": "30 nM"}
{"Compound": "Cc1ccc(Oc2ccc(NC(=O)CNc3ccccc3N3CCCC3=O)cc2)cc1", "tested on": "Plasmodium falciparum", "assay": "parasite growth", "system": "3D7 parental", "endpoint": "EC50", "result": "338 nM"}
{"Compound": "N/C(CC(O)c1cc2c(F)cc(F)cc2c2cc(C(F)(F)F)ccc12)=N\\c1ccc(F)cc1 (centres unmarked)", "tested on": "Plasmodium falciparum", "assay": "parasite growth", "system": "Dd2 parent", "endpoint": "IC50", "result": "15 nM"}
{"Compound": "Cc1[nH]c(C)c(-c2ccc(CCc3ccc(N)cc3)cc2)c(=O)c1Cl", "tested on": "Plasmodium falciparum", "assay": "whole cell extended time", "system": "3D7", "conditions": "72 h", "endpoint": "IC50", "result": "100 nM"}
{"Compound": "CCN(CC)CCCC(C)Nc1ccnc2cc(Cl)ccc12 (centres unmarked)", "tested on": "Plasmodium falciparum", "system": "3D7 0087/N9, NSG mouse", "conditions": "dose not given", "endpoint": "AUC at ED90", "result": "3.1 µM·h"}
{"Compound": "Cc1cc(Nc2ccc(S(F)(F)(F)(F)F)cc2)n2nc(C(C)(F)F)nc2n1", "tested on": "Plasmodium falciparum", "assay": "parasite reduction ratio", "system": "3D7", "endpoint": "lag phase", "result": "24 h"}
{"Compound": "Cc1cccc2nc(-c3ccc(-c4ccc(CN5CC(C)OC(C)C5)cc4)cc3)[nH]c12 (centres unmarked)", "tested on": "Plasmodium falciparum", "assay": "whole cell extended time", "system": "3D7", "conditions": "72 h", "endpoint": "IC50", "result": "520 nM"}
{"note": "Excerpt of the above:"}
{"Compound": "CCN(CC)CCCC(C)Nc1ccnc2cc(Cl)ccc12 (centres unmarked)", "tested on": "Plasmodium falciparum", "system": "3D7 0087/N9, NSG mouse", "conditions": "dose not given", "endpoint": "AUC at ED90", "result": "3.1 µM·h"}
